Measured values of several laboratories.
Every numbered part comes from another study and shows a few of its results, in no order. Changes are numbered by the printed parent chain.

Study 1
Target: Centromere-binding protein 1, full length, N-terminal tag (CBF1, Saccharomyces cerevisiae, UniProt P17106, residues 1-351)
UniProt P17106, sequence (whole entry, looked up): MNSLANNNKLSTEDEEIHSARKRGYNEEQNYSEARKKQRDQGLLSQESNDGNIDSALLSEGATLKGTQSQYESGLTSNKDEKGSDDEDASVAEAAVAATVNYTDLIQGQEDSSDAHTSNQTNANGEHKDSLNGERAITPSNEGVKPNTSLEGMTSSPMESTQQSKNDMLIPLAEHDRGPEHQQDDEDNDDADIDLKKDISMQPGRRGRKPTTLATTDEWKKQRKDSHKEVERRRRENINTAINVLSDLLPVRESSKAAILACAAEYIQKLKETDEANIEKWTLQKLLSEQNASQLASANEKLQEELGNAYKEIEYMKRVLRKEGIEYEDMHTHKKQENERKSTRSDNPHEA
Method: protein-binding microarray
Form: double-stranded DNA, one strand shown
Matrix: in vitro
Tested at: 0.8 µM
Notes: whole 60-bp probe, no competitor
Reading: higher = stronger binding
All sequences stand within: … GTCTTGATTCGCTTGACGCTGCTG
Sequence	fluorescence intensity
GAAACTGCTATTTCTCACGTTTCTTTCCCTATCTAG	610 a.u.
CTAGTTAGTTTTTCTGCTGATATATATCTTTCTTTC	521 a.u.
CTAATGTGTCAACTTCGCGTGCTCGTAAAAAAGTTC	609 a.u.
TGTACGAAGCTATTGACTATTTTTATAGTAGTTAGG	523 a.u.
TGTACGAAGCTATATGGTGAGACTATAGTAGTTAGG	514 a.u.
GAAGAATATATACTCCACATGACATACGAAATATAG	1130 a.u.
CTATTGAGAACTAGTCATCAGATATAATAGAAGTTC	528 a.u.
CTATATTTTTTTCACGTGCTTTTTTTTCAAGGCTTC	7280 a.u.
GAACTAGCCAATCTCCACGAGATTTATCTGGAATAG	503 a.u.
GAACTACGGATGCCTCGCGTCACCATCCGCTGGTAG	482 a.u.
GAACCTCAAAAGGCACTCACCTGTTGACATGCCTAG	524 a.u.
GAAAGATCCAATCATCACCATTGCGCGATCAAATAG	516 a.u.
GAAACAGGTAATATTGGCATGATGCGAAATTGGTAG	544 a.u.
GAAAAAAAACTATGAAACGTCACGAAAAAATGATAG	591 a.u.
GAATTTGCTTGTTCTTTCGTGATTACGAAACCCTAG	552 a.u.
GAAAACGTTTTTTACCACGTTCCAACTCCGTCCTAG	586 a.u.
CTAATCTGTTAATTGAGCATGACATGAAAATTTTTC	657 a.u.
GAAAACTACCCTGACGTCATCAGCGAAATTCGTTAG	479 a.u.
CTATTGGCGAATCGCCACATGCCATTTACGTAATTC	528 a.u.
GAAAAACCCTTAGGTCATCTGATTTTTAGGGTTTAG	1150 a.u.
TGTACGAAGCTATGTCTGGTGACTATAGTAGTTAGG	622 a.u.
GAAGCCGCCCTTGCGCACGGGACCCAGGCTGGATAG	1800 a.u.
GAAACTCTCGTCAGCTTTGTCACGTATTCAACTTAG	741 a.u.
CTATGTTGTTATATTCACGTGCCTGTTTGCTTTTTC	5450 a.u.
CCTAACTACTATAGGTGACTCACATAGCTTCGTACA	517 a.u.

Study 2
Target: CCNB2, cyclin fold, Cln2 fusion (human)
Method: yeast growth competition, sequencing
Matrix: yeast
Notes: weak parent motif
Reference: not given
Reading: higher = stronger binding
Starting sequence: CDKN1B docking peptide (human); PSACRNLFGPVDH
Variant	normalised enrichment score
R5D	-0.494
H13F	0.306
A3Q	0.228
H13E	-0.204
A3R	0.659
R5Y	-0.0296
N6T	-0.209
N6V	0.211
V11F	-0.124
P1W	0.609
N6D	-0.131
R5H	-0.0749
F8E	-0.173
V11W	0.522
L7V	0.317
F8I	0.395
P10V	-0.0566

Study 3
Target: RNA binding protein fox-1 homolog 2, RRM domain, GST-SBP tag (RBFOX2, Homo sapiens, UniProt O43251-10, residues 100-194)
Method: RNA Bind-n-Seq
Form: RNA
Matrix: in vitro
Tested at: 365 nM
Notes: natural RNA segment, single round, ends assumed
Reference: no-protein control
Reading: higher = stronger binding
All sequences stand within: GGGAGUUCUACAGUCCGACGAUC … UGGAAUUCUCGGGUGCCAA
Construct (chain): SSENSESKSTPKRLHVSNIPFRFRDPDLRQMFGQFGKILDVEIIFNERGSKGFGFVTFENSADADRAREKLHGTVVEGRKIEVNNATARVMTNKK
Sequence	RBNS enrichment (R)
CCAAGUCAAGGCUUAGGGAAGUUCAGCCACCUGCUUAGAUGAUAUAUCAAGGUGGCAGUGGAAGGGGGUGAGCUAAGGACCCAGCAAGGUUUCCUGGAGGCAAAGUUUAU	0.464
GAUUGACUAGAAUAUUUCUCCCCCCUGCCCCUUGAUGUGUGAUGUCACCACCUGGUCCUAAUUUAUGUGCAGGAGCACGACACCACUUGUCUCCAGCGCCACACAUCCGA	0.476
UUCCAGACCAACUGUAGAGAUACCUGGCAUUUUGAAGAAAGCCUAGACUGGAGAGCAGGGCCUCUCUUGGGAAGGACACAAGGCGGGCAAGGCUGCUGGCAGACUUCUCC	0.445
UAAUUUAUUUUGUCGAAUUUUUAUUAUUUGUUUUCCCGCCAAGCGGAAAAGGUUUUAUUUUGUAAUUAUUGUGAUUUCCCGUGGCCCCAGCCUGGCCCAGCUCCCCCGGG	0.927
UAAUCUCCCCCUAGCUUCAAGCUGUACAUAGGGCCUCCCAGUGCAAAUCCUCCUGCCCAUACCGUGCACCCUUAGAAGCCUGCGUGUGCAUAGAGCGCCCCCUACUUCCC	0.612
CUGCAAUGCCUUUGGGAAGCUCAGGGGAAUGCUCCCCAAGCUUGUUUCUGACACUAGAAUGCAACAGAUUGGAAACUUUUUGUGUAAAAUGAAAAAAACAAAGUGCUGGU	1.04
UCGAUUCUGCACAGCCCAGCCUCCCCGAGGGCCUUUCCAAGCACAGUGGGGAUUUCUUAGAACAGGAGAGAGGAAUCCAUGAAGCAGGAGAAGCAGUGCCUGCCAGCUGU	0.388
AAUGCUGGUCAUUUCCUUUGCAAAGGACAGUCUCUGAAUUAUACCUACAACCUGUUCUGGGACAGUAUCAAUACUGAUGAGCAACCUGGCACACAAACUAUGAGCAGACC	0.339
CCCAACCUUCAGGCUGCCAGAUGCUCCCCUGACAACACCAGGCUACAGGAGCCAGACGCCAGGGCCUGCCCGGCCUCCUGUUCCUGCCCCCACCCACCACCUGCCUGGAG	0.259
GGAGUUUUCACCGUGGUCAUUUCUACCUCCGGAGCAAGGUGCCAGCGCCAGUACUAGAGCCUGCUUAUCCACAUUUGCCCUGGACAGGAGCAGGAGGAAGUCCACUUCUG	0.313
CUUCAGAGAUGGAUGAAAGUUUGGAGUGUGCAGGUGCGCAAUCAUUACCAGCUGAGAAGCUCUCCGAAACCGGUGGCUACGGGACUCUUCAGCAUGGAGAGGACACCGUG	0.424
GGCCCACUUGGGCACCCACGCUUCUGUCCACUUCUGGUUGCCAGGAGACAGCAAGCAAAGCCAGCAGGACAUGAAGUUGCUAUUAAAUGGACUUCGUGAUUUUUGUUUUG	0.313

Study 4
Target: ABI1, truncated, D143A, DHFR fusion (Arabidopsis thaliana)
Method: DHFR PCA, deep sequencing
Matrix: yeast
Notes: methotrexate growth selection, single substitutions
Added: (+)-ABA 4.8 µM
Reference: wild-type fitted maximum
Reading: higher = stronger binding
Starting sequence: PYL1, truncated, DHFR fusion (Arabidopsis thaliana); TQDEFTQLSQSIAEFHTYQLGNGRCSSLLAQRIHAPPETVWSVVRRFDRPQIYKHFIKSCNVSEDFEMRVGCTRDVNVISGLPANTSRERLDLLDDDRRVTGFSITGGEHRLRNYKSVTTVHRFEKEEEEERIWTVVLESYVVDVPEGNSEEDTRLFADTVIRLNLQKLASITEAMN
Variant	relative binding score [%]
E38I	-26.6
L138Y	4.91
R98P	1.23
W41S	0.631
E38H	40.5
G108R	-4.65
L164A	66.2
C60D	-4.17
Y53K	-27.3
L8K	19.7
T135M	-0.202
E38Q	46.4
V143C	73.9
V62C	41.2

Repeated from above (study 3):
Sequence	RBNS enrichment (R)
GAUUGACUAGAAUAUUUCUCCCCCCUGCCCCUUGAUGUGUGAUGUCACCACCUGGUCCUAAUUUAUGUGCAGGAGCACGACACCACUUGUCUCCAGCGCCACACAUCCGA	0.476
UAAUCUCCCCCUAGCUUCAAGCUGUACAUAGGGCCUCCCAGUGCAAAUCCUCCUGCCCAUACCGUGCACCCUUAGAAGCCUGCGUGUGCAUAGAGCGCCCCCUACUUCCC	0.612
AAUGCUGGUCAUUUCCUUUGCAAAGGACAGUCUCUGAAUUAUACCUACAACCUGUUCUGGGACAGUAUCAAUACUGAUGAGCAACCUGGCACACAAACUAUGAGCAGACC	0.339
CUUCAGAGAUGGAUGAAAGUUUGGAGUGUGCAGGUGCGCAAUCAUUACCAGCUGAGAAGCUCUCCGAAACCGGUGGCUACGGGACUCUUCAGCAUGGAGAGGACACCGUG	0.424
